Published values of several laboratories.
Every numbered part comes from another study and shows a few of its results, in no order. Positions count from the first letter of the parent shown.

Series 1 — target: CRIPT, C-terminal peptide; technique: DHFR complementation, deep sequencing; sample: yeast; baseline: wild type; reading: higher = weaker binding
Notes: single substitutions, model-inferred values
Starting sequence: ERBIN, PDZ domain 1 (human); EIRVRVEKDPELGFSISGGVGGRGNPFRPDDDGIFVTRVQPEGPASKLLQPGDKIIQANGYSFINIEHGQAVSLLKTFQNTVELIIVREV; partner TKNYKQTSV
| Substitution | binding free energy change |
| --- | --- |
| D9I | 1.08 kcal/mol |
| G18P | 1.59 kcal/mol |
| F14K | 0.453 kcal/mol |
| S15L | 0.885 kcal/mol |
| S73D | -0.00852 kcal/mol |
| L75W | 2.55 kcal/mol |
| I66F | -0.0134 kcal/mol |
| V4Q | 0.946 kcal/mol |

Series 2 — technique: protein-binding microarray; molecule type: double-stranded DNA, one strand shown; sample: in vitro; tested at: 2200 nM top; notes: 60-bp whole probe; with: salmon DNA 0.4 mg/ml; baseline: random background probes; reading: higher = stronger binding; constant ends, left off below: GCCTAGCAC … GTCTTGATTCGCTTGACGCTGCTG
Target: Interferon regulatory factor 7, full length, phosphomimetic (IRF7, Homo sapiens, UniProt Q92985, residues 1-503, S471D/S472D/S475D/S476D/S477D/S483D/S484D/S487D)
Target sequence (chain): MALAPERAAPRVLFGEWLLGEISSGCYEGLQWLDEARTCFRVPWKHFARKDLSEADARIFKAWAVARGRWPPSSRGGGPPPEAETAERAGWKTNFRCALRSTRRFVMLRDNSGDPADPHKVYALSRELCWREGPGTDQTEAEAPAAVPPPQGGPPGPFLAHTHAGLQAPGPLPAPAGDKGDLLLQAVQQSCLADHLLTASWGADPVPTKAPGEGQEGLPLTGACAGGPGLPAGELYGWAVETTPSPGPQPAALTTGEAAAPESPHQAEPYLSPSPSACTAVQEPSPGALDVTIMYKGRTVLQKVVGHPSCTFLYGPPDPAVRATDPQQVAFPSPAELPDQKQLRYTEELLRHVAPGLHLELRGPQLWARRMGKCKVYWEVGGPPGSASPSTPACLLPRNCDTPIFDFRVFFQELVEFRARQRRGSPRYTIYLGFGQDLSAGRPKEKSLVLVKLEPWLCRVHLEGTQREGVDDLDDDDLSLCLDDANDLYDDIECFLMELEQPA
| Strand | fitted relative affinity [z-score] |
| --- | --- |
| GGTATTCGGAACTTTTAGCTGTGCTAG | 0.311 |
| GACGAACTGAGTTTCGAGATGTGCTAG | 2.83 |
| TTAGATTTCAGACTGGCTTAGTGCTAG | 0.161 |
| TCATGCTTCGAGATCTCACTGTGCTAG | 1.21 |
| TGTACTCTCTCCATGTGTTTGTGCTAG | 2.11 |
| GACGATATCGGGTATAGAGACGTGCTA | -0.161 |
| TTAGGCATCGGACTGGGTTAGTGCTAG | -0.547 |
| TTAGATATCGGGTTTCGAGTAGTGCTA | 1.71 |

Single results of other studies
P1: PafA, mature enzyme, eGFP fusion (Elizabethkingia meningoseptica, UniProt Q9KJX5); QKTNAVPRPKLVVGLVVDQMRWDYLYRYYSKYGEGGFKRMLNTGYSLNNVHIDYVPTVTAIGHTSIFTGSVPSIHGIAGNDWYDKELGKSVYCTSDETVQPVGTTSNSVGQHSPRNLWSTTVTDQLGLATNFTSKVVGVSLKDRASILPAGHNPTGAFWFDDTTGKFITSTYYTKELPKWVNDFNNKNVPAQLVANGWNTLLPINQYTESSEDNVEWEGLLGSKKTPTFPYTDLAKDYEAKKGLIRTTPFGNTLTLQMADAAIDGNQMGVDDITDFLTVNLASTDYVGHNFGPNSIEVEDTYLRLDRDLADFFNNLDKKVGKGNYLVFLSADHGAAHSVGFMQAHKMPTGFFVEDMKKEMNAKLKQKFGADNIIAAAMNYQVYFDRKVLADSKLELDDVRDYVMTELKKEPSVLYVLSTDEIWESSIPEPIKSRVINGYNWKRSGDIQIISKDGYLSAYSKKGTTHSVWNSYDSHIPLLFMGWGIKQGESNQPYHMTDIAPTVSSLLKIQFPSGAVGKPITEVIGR
| Molecule | target | assay | test system | setting | scale | endpoint | value |
| --- | --- | --- | --- | --- | --- | --- | --- |
| PhoQ, residues 284 288 289 292 302 303 SMMNNA | PhoP, residues 12 14 15 18 19 VQGLL (Escherichia coli, UniProt P23836) | Sort-seq, refers to: YFP reporter | E. coli | PhoQ-PhoP variant library, with: 10 µM Mg2+ | baseline: high Mg2+ state, higher = stronger signaling | fold induction | 21.5 |
| P1 D161G | vanadate, free oxyanion | microfluidic competitive inhibition | in vitro, cell-free expressed | not given, derived from inhibition constants, unchanged parent 676 nM | lower = stronger binding | oxyanion analog dissociation constant | 1.52 µM |

Repeated from above (series 2):
| Strand | fitted relative affinity [z-score] |
| --- | --- |
| TCATGCTTCGAGATCTCACTGTGCTAG | 1.21 |
| TGTACTCTCTCCATGTGTTTGTGCTAG | 2.11 |
